Results pooled from the literature.
Protocols differ between the studies behind these lines.
Target: Ephrin type-A receptor 3 (EPHA3, Homo sapiens, UniProt P29320)

With `C=CC(=O)N1CCc2ccc(-n3c(=O)ccc4cnc5ccc(-c6cnn(C)c6)cc5c43)cc21` the remaining binding was 100% (KINOMEscan; 1 µM; reference: DMSO control).
The inhibition of `CCn1cc(C(=O)O)c(=O)c2c(N)c(F)c(NC3CCCCC3)cc21` is reported as -7.6% (kinase activity; 0.1 µM, with: ATP at Km).
With `COc1c(Cl)cccc1Nc1c(-c2ccncc2C#C[C@@]2(C)CCCN2C(=O)/C=C/CN(C)C)[nH]c2c1C(=O)NCC2` the remaining binding was 78% (cell-free assay, competition with immobilised ligand; 3 µM).
For `Nc1ncc(-c2cc(-c3cnn(CC(F)(F)F)c3)ncc2F)nc1C(=O)NC1CNCC(F)C1` (centres unmarked), the remaining activity was 88.5% (enzyme activity; 1 µM; reference: DMSO control).
With `CNC1C[S+]2CC[S+]3CC[S+](C1)[Ru-4]321([N]=C=S)[n]2c3ccc(OC)cc3c3c4c(c5cc(F)c[n+]1c5c32)C(=O)NC4=O` (centres unmarked) the remaining binding was 58% (KinomeScan; 0.1 µM; reference: untreated).
With `NC(=O)[C@@H](O)C[C@H]1CCc2sc3ncnc(O[C@H]4CC[C@H](N5CCOCC5)CC4)c3c21` the inhibition was 11% (enzyme activity, inhibitor; 10 µM).
`CNC(=O)C[C@H](Cc1ccc(C#N)cc1)NC(=O)c1cc(-c2ccc(CN[C@H](C)c3ccc(C)cc3)o2)ccc1Cl` — result for “activity vs control”: 107% (enzyme activity, inhibitor; 1 µM).
The inhibition of `Cc1nc2c(F)cc(-c3nc(Nc4ccc(CNC(=O)CCCCCCC(=O)NO)cc4)ncc3F)cc2n1C(C)C` is reported as 60% (enzyme activity, inhibitor; 1 µM).
The remaining activity of `COc1c(OCCCN2CCOCC2)ccc2c1N=C(NC(=O)c1cnc(N)nc1)N1CCN=C21` is reported as 75% (kinase activity, inhibitor; 1 µM; reference: untreated control).
`COc1ccc(NC(=O)Nc2ccc3c(c2)C(=O)N(C(C)CO)CC(C)C(CN(C)Cc2ccc4c(c2)OCO4)O3)cc1` (centres unmarked) has a remaining activity of 91% (kinase activity; 0.03 µM; reference: control).
`CCN1CCN(Cc2ccc(C(=O)Nc3ccc(C)c(NCc4cnc5[nH]ccc5c4OC)c3)cc2C(F)(F)F)CC1` has a remaining binding of 19% (binding, competition with immobilised ligand; 1 µM).
With `C=CC(=O)Nc1cccc(-c2cnc3[nH]cc(C(=O)NC(C)(C)C)c3n2)c1` the inhibition was -4% (kinase activity; 0.1 µM).
`COCC12C(=O)NC3C4(C(OC)CC1O)C1CC5(O)C(OC)C(O)C(OC(C)=O)(C1C5OC(=O)c1ccccc1)C3(O)C(OC)C24` (centres unmarked) has a remaining activity of 98% (kinase activity, inhibitor, ProQinase kinase profiling; 25 µM; reference: control).
`Cc1cccc(O[C@H]2CCC[C@@H](C(C)CNCc3ccncc3)C2)c1` (relative stereo) gave an inhibition of -9% (cell-free assay; 10 µM).

Excerpt of the above:
With `CNC1C[S+]2CC[S+]3CC[S+](C1)[Ru-4]321([N]=C=S)[n]2c3ccc(OC)cc3c3c4c(c5cc(F)c[n+]1c5c32)C(=O)NC4=O` (centres unmarked) the remaining binding was 58% (KinomeScan; 0.1 µM; reference: untreated).
